Published values of several laboratories.
Lines come from different studies, so protocols differ. Values joined by “and” are separate records of one study, mostly repeats; a detail may differ.
Target: Eukaryotic translation initiation factor 2-alpha kinase 1 (EIF2AK1, Homo sapiens, UniProt Q9BQI3)

With `CNC(=O)C1CCN(c2cc(C)c(F)cc2NC(=O)c2ccc(-c3cc(O)ccc3C)c(C)c2)CC1` the remaining binding was 99% (binding, competition with immobilised ligand; 1 µM).
With `CCn1cc(C(=O)O)c(=O)c2c(N)c(F)c(NC3CCCCC3)cc21` the inhibition was -0.5% (kinase activity; 0.1 µM, with: ATP at Km).
`CC(C)=CC1OC(C)(C)C2C=C3C(=O)C(Cl)=CC(O)C3C3C(O)C4OC4C(=O)C132` (stereo not shown) has a remaining binding of 89% (cell-free assay, competition with immobilised ligand; 10 µM).
The remaining binding of `Cc1cnc2nc1Nc1cccc(c1)COC/C=C/COCc1cc(ccc1OCCN1CCOCC1)N2` is reported as 97% (binding; 0.1 µM).
`CN1CC[C@@H](COc2cnc(C#N)cc2-c2ccn3nc(NC(=O)C4CC4)cc3c2)C1` gave an inhibition of 7% (enzyme activity, inhibitor; 1 µM).
The remaining binding of `CCN1CCN(Cc2ccc(C(=O)Nc3ccc(C)c(NCc4cnc5[nH]ccc5c4OC)c3)cc2C(F)(F)F)CC1` is reported as 67% (binding, competition with immobilised ligand; 1 µM).
With `Cc1cc(NC(=O)[C@H](O)c2cc(F)cc(F)c2)ccc1-c1cnc(N)c(C(=O)NC(C)C)c1` the remaining binding was 100% (binding, competition with immobilised ligand; 1 µM).
With `COc1cc(Nc2nc(C)cc(-c3cnn4nc(OC)ccc34)n2)cc(C(F)(F)F)c1` the remaining activity was 89% (inhibitor; 1 µM; relative to: control).
Under “activity vs control”, `O=C(Cc1ccc(OCc2ccccc2)cc1)NC1(C(=O)O)CCN(C(=O)c2ccc(-c3cccc(Cl)c3)cc2)CC1` is recorded as 82% (enzyme activity, inhibitor; 10 µM).
Under “activity vs control”, `CNC(=O)C[C@H](Cc1ccc(C#N)cc1)NC(=O)c1cc(-c2ccc(CN[C@H](C)c3ccc(C)cc3)o2)ccc1Cl` is recorded as 103% (enzyme activity, inhibitor; 1 µM).
`CS(=O)(=O)Nc1cccc(-c2csc3cnc(Nc4ccc(N5CCN(CCCCCOc6cccc7c6C(=O)N(C6CCC(=O)NC6=O)C7=O)CC5)cc4)nc23)c1` (stereo not shown) has an inhibition of 37.8% (probe labelling, inhibitor, KiNativ chemoproteomics; MOLT-4; 1 µM).
The remaining binding of `Cc1ccc(-c2c(/C=C(\C#N)C(=O)NC(C)C)n(CCCO)c3ncnc(N)c23)cc1` is reported as 100% (cell-free assay, competition with immobilised ligand; 1 µM).
With `CNC1C[S+]2CC[S+]3CC[S+](C1)[Ru-4]321([N]=C=S)[n]2c3ccc(OC)cc3c3c4c(c5cc(F)c[n+]1c5c32)C(=O)NC4=O` (stereo not shown) the remaining binding was 82% (KinomeScan; 0.1 µM; relative to: untreated).
`COc1cc(Nc2nccc(-c3cnn4nc(OC)ccc34)n2)cc(C(F)(F)F)c1` gave a remaining binding of 88% (binding, competition with immobilised ligand; 1 µM).
For `COc1c(Cl)cccc1Nc1c(-c2ccncc2C#C[C@@]2(C)CCCN2C(=O)/C=C/CN(C)C)[nH]c2c1C(=O)NCC2`, the remaining binding was 84% (binding, competition with immobilised ligand; 3 µM).
The remaining binding of `C=CC(=O)N1CCCC(n2c(=O)c3ncccc3n(Cc3ccc(Oc4ccccc4)cc3)c2=O)C1` (stereo not shown) is reported as 90% (cell-free assay, competition with immobilised ligand; 1 µM).
For `C=CC(=O)N1CCc2ccc(-n3c(=O)ccc4cnc5ccc(-c6cnn(C)c6)cc5c43)cc21`, the remaining binding was 100% (KINOMEscan; 1 µM; relative to: DMSO control).
The remaining binding of `Nc1ncc2c(n1)-c1c([nH]c3ccc(C4=CCOCC4)cc13)CCC2` is reported as 100% (binding, competition with immobilised ligand; 1 µM).
For `COCC12C(=O)NC3C4(C(OC)CC1O)C1CC5(O)C(OC)C(O)C(OC(C)=O)(C1C5OC(=O)c1ccccc1)C3(O)C(OC)C24` (stereo not shown), the remaining activity was 97% and 96% (kinase activity, inhibitor, ProQinase kinase profiling; 25 µM; relative to: control).

Repeated from above:
For `C=CC(=O)N1CCc2ccc(-n3c(=O)ccc4cnc5ccc(-c6cnn(C)c6)cc5c43)cc21`, the remaining binding was 100% (KINOMEscan; 1 µM; relative to: DMSO control).
With `CNC(=O)C1CCN(c2cc(C)c(F)cc2NC(=O)c2ccc(-c3cc(O)ccc3C)c(C)c2)CC1` the remaining binding was 99% (binding, competition with immobilised ligand; 1 µM).
